# Published values gathered from unrelated publications.
# Compare with care: the assays were run in different laboratories. “And” joins repeats or separate records; there may be more than shown.
# TDP1: Tyrosyl-DNA phosphodiesterase 1 (TDP1, Homo sapiens, UniProt Q9NUW8)
# UniProt Q9NUW8, sequence (whole entry, looked up): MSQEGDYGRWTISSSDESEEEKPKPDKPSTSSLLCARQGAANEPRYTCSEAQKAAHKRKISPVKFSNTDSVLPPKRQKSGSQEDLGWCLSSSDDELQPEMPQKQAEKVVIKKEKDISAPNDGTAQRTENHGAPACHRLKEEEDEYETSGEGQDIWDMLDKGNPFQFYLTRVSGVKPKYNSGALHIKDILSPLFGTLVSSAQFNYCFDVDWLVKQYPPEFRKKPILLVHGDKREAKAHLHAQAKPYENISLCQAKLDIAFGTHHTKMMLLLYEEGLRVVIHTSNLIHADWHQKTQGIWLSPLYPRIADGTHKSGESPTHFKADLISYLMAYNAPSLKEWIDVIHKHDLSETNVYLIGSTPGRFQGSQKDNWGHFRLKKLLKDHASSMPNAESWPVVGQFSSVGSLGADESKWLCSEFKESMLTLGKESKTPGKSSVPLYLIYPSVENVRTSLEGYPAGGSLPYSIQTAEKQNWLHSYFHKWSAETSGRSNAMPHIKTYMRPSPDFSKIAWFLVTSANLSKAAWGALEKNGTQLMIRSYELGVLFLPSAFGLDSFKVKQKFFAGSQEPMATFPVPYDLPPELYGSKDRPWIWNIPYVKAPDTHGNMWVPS
SMILES,tested on,test,setting,quantity,value
CC(F)(F)CCCNC[C@@H](O)c1cc(Cl)cc2c1-c1ccc(Cl)cc1C2,HepG2,cell growth or viability,48 h,CC50,2.7 µM
CCc1cc(CCC(=O)O)nc(-c2nc(=O)c3ccccc3s2)c1,HepG2,cell growth or viability,,CC50,> 25 µM
Cc1ccc(S(=O)(=O)n2cc3c4c2C(=O)C(NCCc2ccc(O)cc2)=CC4=NCC3)cc1,HepG2,"cell growth or viability, MTT",72 h,CC50,1.25 µM
Cc1cc(C(=O)Nc2nc3cccc(C)c3n2[C@H]2CCCCN(C(=O)/C=C/CN(C)C)C2)ccn1,HepG2,cytotoxicity,"4 days, single replicate",CC50,6.35 µM and 7.91 µM and 10.1 µM and 8 µM
COC(=O)c1ccc(-c2cccc(C=NOCc3ccc4nc(-c5ccccc5)c(Nc5ccc(C(=O)O)cc5)n4c3)n2)cc1 (mixture of isomers),TDP1,"enzyme activity, inhibitor","100 µM, unpurified compound",inhibition,42.2%
O=C1c2cc(Cl)ccc2-n2c1nc1ccc(Cl)cc1c2=O,HepG2,"cell growth or viability, ATP luminescence",,CC50,11 to 24 µM
O[C@H](CNCCNC(c1ccccc1)c1ccccc1)c1cc(Cl)cc2c1-c1ccc(Cl)cc1C2,HepG2,cell growth or viability,48 h,CC50,3 µM
O=C1C(=O)c2[nH]cc3c2C(=C1Cl)NCC3,HepG2,"cell growth or viability, MTT",72 h,CC50,12.5 µM
O=C1c2cc(Cl)ccc2-n2c1nc1cccc(Cl)c1c2=O,HepG2,"cell growth or viability, ATP luminescence",,CC50,≥ 100 µM
Cc1ccc2c(c1)nc(NC(=O)c1cccc(C(F)(F)F)c1)n2[C@H]1CC[C@H](N)CC1,HepG2,cytotoxicity,"4 days, mean value",CC50,2.35 µM
O=C(O)c1ccc(Nc2c(-c3ccc(CON=Cc4cc5c(cc4[N+](=O)[O-])OCCO5)cc3)nc3cc(-c4ccccc4)ccn23)cc1 (mixture of isomers),TDP1,"enzyme activity, inhibitor","100 µM, unpurified compound",inhibition,52.3%
O=C1C(=O)c2[nH]cc3c2C(=C1I)NCC3,HepG2,"cell growth or viability, MTT",72 h,CC50,40 µM
CCOC(=O)c1cn(CC(c2c[nH]c3cc(Br)ccc23)c2c[nH]c3cc(Br)ccc23)c(C)c1C(=O)OC,HepG2,"cell growth or viability, MTS",24 h,CC50,> 20 µM
COc1ccc(CCNC2=CC3=[N+](C)CCc4c[nH]c(c43)C2=O)cc1,HepG2,"cell growth or viability, MTT",72 h,CC50,0.3 µM
CCc1cc(CCC(=O)O)nc(-c2nc(=O)c3ccc(F)cc3s2)c1,HepG2,cell growth or viability,,CC50,> 25 µM
COC1=CC2=NCCc3c[nH]c(c32)C1=O,HepG2,"cell growth or viability, MTT",72 h,CC50,25 µM
CCc1nnc(-c2ccc3ccn(CC(=O)Nc4cc(OC)c(OC)c(OC)c4)c3c2)o1,HepG2,cell growth or viability,,CC50,> 40 µM

# Excerpt of the above:
SMILES,tested on,test,setting,quantity,value
CCOC(=O)c1cn(CC(c2c[nH]c3cc(Br)ccc23)c2c[nH]c3cc(Br)ccc23)c(C)c1C(=O)OC,HepG2,"cell growth or viability, MTS",24 h,CC50,> 20 µM
COc1ccc(CCNC2=CC3=[N+](C)CCc4c[nH]c(c43)C2=O)cc1,HepG2,"cell growth or viability, MTT",72 h,CC50,0.3 µM
CCc1cc(CCC(=O)O)nc(-c2nc(=O)c3ccc(F)cc3s2)c1,HepG2,cell growth or viability,,CC50,> 25 µM
